Results collected from several papers.
Numbered parts are unrelated; each lists some results of a single study. Substitutions count along the parent as printed.

Block 1 — target: CCNE1, cyclin fold, Cln2 fusion (human); technique: yeast growth competition, sequencing; medium: yeast; notes: weak parent motif; reference: not given; direction: higher = stronger binding
Starting sequence: HIRA docking peptide (human); SLSKRKLELEVET
Variant | normalised enrichment score
SLSKAKAELEVET [R5A L7A] | 0.0965
SLSKRKLEAEVET [L9A] | -0.226
SLSKRKLEFEVET [L9F] | 0.692
SLAKRKLELEVET [S3A] | -0.434
SLSKRKLELEAET [V11A] | -0.688
SLSKRKLALEVET [E8A] | 0.428
SLSKKKLEFEVET [R5K L9F] | 0.105
SLSKRKLELAVET [E10A] | -0.0117
SASKRKLELEVET [L2A] | -0.167
SLSKRKLELEVEA [T13A] | 0.397

Block 2 — target: JDP2, bZIP domain (human); technique: DHFR protein complementation; medium: yeast; reference: wild-type JUN-FOS pair; direction: higher = stronger binding
Notes: single substitutions, most at no-binding floor
Starting sequence: JUN, bZIP domain (human); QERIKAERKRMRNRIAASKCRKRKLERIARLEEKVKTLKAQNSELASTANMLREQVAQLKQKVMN; partner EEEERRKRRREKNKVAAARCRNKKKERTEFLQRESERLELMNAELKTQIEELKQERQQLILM
Variant | binding fitness [natural log]
E54L | 0.146
T48A | 0.276
E54H | 0.222
E33I | 0.158
A29H | 0.143
R53F | 0.122
M51D | 0.322
N42F | 0.196
Q55L | 0.168
A29L | 0.105
L45V | -0.212
M51F | 0.321
K39Y | 0.22
L31A | 0.259
V35W | 0.28
V56H | -0.47
A29M | 0.0399
M51E | 0.305
V35Q | 0.0466

Block 3 — technique: RNAcompete; form: RNA; medium: in vitro; concentration: 20 nM; notes: 7-mer, probes averaged, single round; reference: mean of 7-mers; direction: higher = stronger binding
Target: PABPC1L2, full length, GST fusion (mouse, UniProt A0ABA7IW68)
Construct (chain): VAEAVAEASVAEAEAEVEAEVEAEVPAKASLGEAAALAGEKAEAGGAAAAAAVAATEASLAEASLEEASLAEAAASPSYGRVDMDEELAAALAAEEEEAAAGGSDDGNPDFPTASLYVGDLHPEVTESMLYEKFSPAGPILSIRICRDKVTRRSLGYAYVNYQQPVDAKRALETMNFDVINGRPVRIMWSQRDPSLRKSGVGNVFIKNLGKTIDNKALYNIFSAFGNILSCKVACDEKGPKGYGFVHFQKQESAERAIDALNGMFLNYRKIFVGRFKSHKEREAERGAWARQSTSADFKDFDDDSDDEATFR
Strand | 7-mer Z-score
ACAUAAA | 3.53
CUAAGUU | -0.335
UUGGGCC | -0.318
UGUACAU | -0.146
AGGAAUG | -0.0246
AGAGGAU | -0.0554
AGGACGU | 0.0678
GUUGUAA | -0.0373
CCGAGGA | -0.0844
GUAUUCA | -0.286
AAUCAUA | 0.294
AUGACUC | -0.0718
GACACCU | -0.193
GUGGUCG | -0.204
UCUGGUU | -0.267
AGCGCUC | -0.306
AGAGACA | 0.175
AACCCAC | -0.144

Block 4 — technique: protein-binding microarray; form: double-stranded DNA, one strand shown; medium: in vitro; concentration: not given; direction: higher = stronger binding
Target: Protein C-ets-1 (ETS1, Homo sapiens, UniProt P14921, residues 1-441, full length assumed)
Notes: k-mer, scored over probes, only values ≥0.25
Target sequence (chain): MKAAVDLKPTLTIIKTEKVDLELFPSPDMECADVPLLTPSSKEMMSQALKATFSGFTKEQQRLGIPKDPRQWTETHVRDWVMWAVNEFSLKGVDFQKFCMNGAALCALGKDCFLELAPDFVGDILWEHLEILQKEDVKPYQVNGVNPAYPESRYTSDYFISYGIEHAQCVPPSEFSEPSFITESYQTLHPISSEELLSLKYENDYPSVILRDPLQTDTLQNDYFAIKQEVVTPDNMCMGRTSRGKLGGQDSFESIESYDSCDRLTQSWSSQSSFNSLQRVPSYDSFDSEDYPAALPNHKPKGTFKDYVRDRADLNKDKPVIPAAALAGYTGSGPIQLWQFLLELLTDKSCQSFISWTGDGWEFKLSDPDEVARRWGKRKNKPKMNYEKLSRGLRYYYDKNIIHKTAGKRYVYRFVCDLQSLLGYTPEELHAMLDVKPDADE
Strand | E-score
CCAACGGA | 0.251
GGAAGCGA | 0.401
CCGGTCAC | 0.352
ACGGGATA | 0.297
CGAGCGGA | 0.332
CGGATGCA | 0.468
GGAAGTGA | 0.467
CCAGTTCC | 0.357
CAGTTCCG | 0.438
ATCCGCCA | 0.42
GACGGATA | 0.395
GGAAATAC | 0.451
GTAACGGA | 0.295
CACTTCCC | 0.446
CAGGAAGG | 0.451
AAGGAAGC | 0.43
CATGTAGG | 0.277
AGGATATC | 0.368
CATCCGAC | 0.4
CACGGAAG | 0.433
ACGGGATG | 0.361
GCGCTTCC | 0.435
ACATCCTA | 0.4

Block 5 — technique: RNA Bind-n-Seq; form: RNA; medium: in vitro; concentration: 365 nM; reference: no-protein control; direction: higher = stronger binding
Target: RNA binding protein fox-1 homolog 2, RRM domain, GST-SBP tag (RBFOX2, Homo sapiens, UniProt O43251-10, residues 100-194)
Notes: natural RNA segment, single round, ends assumed
Construct (chain): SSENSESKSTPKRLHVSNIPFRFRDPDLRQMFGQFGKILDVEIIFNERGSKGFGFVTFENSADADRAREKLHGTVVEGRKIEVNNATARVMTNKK
Strand | RBNS enrichment (R)
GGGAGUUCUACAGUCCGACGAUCCUUCCCUUUUGAAAGGCCCGUGUGUUUUCUUUCCUUACCCUGUGCUUGCUCAUGUCUACUCCGGUUUUCUCUACCACAUCCUUAGAGCCAUCACCUGGCACGCAGGCGCCUGGAAUUCUCGGGUGCCAA | 0.643
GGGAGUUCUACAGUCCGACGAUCAGUGACUCUCUGUCAGAACAAAUGCUGUGCAGGUGAUAAAGCUAUGUAUUGGAAGUCAGAUUUCUAGUAGGAAAUGUGGUCAAAUCCCUGUUGGUGAACAAAUGGCCUUUUGGAAUUCUCGGGUGCCAA | 0.346
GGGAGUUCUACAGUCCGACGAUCGGUCCAGGACUCAGCUUUCUGCUUCAGCCUAAGCCAGUACUCCUUGUUUGAGGUAAAAGCCUUAAAAUUUAGCUCCCUAGCUCUUGAUUAGAAGCAAUUUGGAGUAAGUGUGGAAUUCUCGGGUGCCAA | 0.255
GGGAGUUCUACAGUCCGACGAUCCUGCUCUCAAGGUUAAUUUUAACUUGGAGACUUUCAGCUCCUUGAAAGACUAUUAAUCCCUCCAGCCUGAUGACCAGUUCUCAGCUGUGGUGUGGCAGCUGAGGAAUUGGUGGAAUUCUCGGGUGCCAA | 0.647
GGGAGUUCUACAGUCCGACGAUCACUUGACAUGGUAACAUCACUAUUAUAUACUAGAAGCAAGAAUUUUACACUUAUGCUCUAAGUGAUCCUUUUAAAAAUUUUCUGAACUAUUUGAGGAAAGUAUUAUUUGUUGGAAUUCUCGGGUGCCAA | 0.61
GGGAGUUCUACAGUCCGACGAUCUUUUCAAGCCAAGAACCAGUAGAAAACAGAAAUAAUGGUGCUCCCAAAUAUUCAGUACCUUGGGCAAUCCAGGAAGGGUUUAAAGAGACCUGUUGCUGCAUAGAACUCUCUGGAAUUCUCGGGUGCCAA | 0.43
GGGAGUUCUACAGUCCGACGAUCGACUUUUUCCCGGAGAUGGGGGUGGGGGAUGUUUAGGUCCCACUAUGAUGCAAGCAGCCAUGACCCACAUUCUGUUGCUGCCUCGUUUAUGCAGAAGGUCUGAUUCCAGAUGGAAUUCUCGGGUGCCAA | 0.453
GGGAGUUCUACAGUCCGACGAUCCCACUAUUCAAACUUCCAAGGAGUCCCACUCUCAGGGGGCGGGGCACAGAGCUAAAAUCUCCAAAAGAACUGGGUGUGAACUCACAUGGUGGCUAGGAAGGCAGAGCGCCUGGAAUUCUCGGGUGCCAA | 0.384
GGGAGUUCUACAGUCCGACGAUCACAGGAUUCUUAUCAUUUGUAAAUCUAAAACCGUCUGUGAACGCAUUUCUAUGCUUCUUCCUUUAUGAAAGCAUAACUUAAAACAUGAAAAUAAUGUUGGUUAUAGAAAUUGGAAUUCUCGGGUGCCAA | 0.478
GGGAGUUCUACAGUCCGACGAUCAUGUUAAUGAUGGUGCAAUACUCUCACCUGCAGUAGAACUGAGUUCUGCUGCAGCUUGUGUAAAAGUGGGCAGUACACAAGUACGUCCCAAAGCCUGUGAGCAGUAUACGUGGAAUUCUCGGGUGCCAA | 0.163
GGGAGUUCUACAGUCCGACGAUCUCCAUGGGCUGCUAGACUCUUGCGGGUAGAGUCUCCCCUGGACUUAGCAUUGUGAGAUGGACUCAGCUCAGGGCGCCCCUAAGGCUCGGAGGCGGCCUUCUGGGUCCCCAUGGAAUUCUCGGGUGCCAA | 0.675
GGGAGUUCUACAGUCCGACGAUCAAUUGAGAUUGAUGUGUUUUCACUGGAUUUUUAUCUCUCUCAACUUCCUGCACUUAACAAUAUGAAAUAGAAACUUUUGUCUUUACUGAGAUGAGGAUAUGUUUGAGAUGUGGAAUUCUCGGGUGCCAA | 0.487

Block 6 — technique: universal PBM; form: double-stranded DNA, one strand shown; medium: in vitro; concentration: not given; direction: higher = stronger binding
Target: Sal-like protein 4, full length isoform B (SALL4, Homo sapiens, UniProt Q9UJQ4-2, residues 1-616)
Notes: 8-mer, flanks averaged, mean of replicates
Residues (chain): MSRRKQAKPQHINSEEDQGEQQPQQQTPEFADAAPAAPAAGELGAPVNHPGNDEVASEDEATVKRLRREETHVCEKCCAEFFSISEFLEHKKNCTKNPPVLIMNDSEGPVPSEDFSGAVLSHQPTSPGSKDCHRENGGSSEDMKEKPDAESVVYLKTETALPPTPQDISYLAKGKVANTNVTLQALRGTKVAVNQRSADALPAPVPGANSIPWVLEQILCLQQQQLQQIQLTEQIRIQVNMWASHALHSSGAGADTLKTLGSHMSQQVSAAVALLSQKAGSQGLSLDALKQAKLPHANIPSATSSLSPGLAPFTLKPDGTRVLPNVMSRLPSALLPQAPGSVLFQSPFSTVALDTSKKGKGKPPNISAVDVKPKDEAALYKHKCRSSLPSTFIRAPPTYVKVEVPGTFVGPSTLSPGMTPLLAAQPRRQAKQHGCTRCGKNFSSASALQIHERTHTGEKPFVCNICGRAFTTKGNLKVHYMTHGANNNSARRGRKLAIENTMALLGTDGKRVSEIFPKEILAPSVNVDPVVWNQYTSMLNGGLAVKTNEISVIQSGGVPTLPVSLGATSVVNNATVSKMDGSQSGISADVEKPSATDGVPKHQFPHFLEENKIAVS
Strand | E-score
AGAGGGCC | -0.237
AAATTGTT | 0.352
CTCTGTCC | -0.18
CCGGTGAC | -0.363
GATTGACA | 0.123
CCCCGTCA | -0.206
ACTCGCAT | 0.0673
AAACAACC | -0.0615
GCACAACA | 0.132
CGCAAGAG | -0.117
GTGAGACA | -0.0735
AAGGTGTG | -0.0167
CTGGTTTA | 0.053
ACTGAGAC | -0.144
CAGGTTGA | -0.14
CCCGTAGC | -0.323
AGTCTTTG | -0.0224
AGGTTCAG | 0.0122
ATGCTGGG | -0.225
ACGCTGTG | -0.0484
CGTTGCAC | -0.0215
CGTGTAAG | 0.0657
CCAGGGCA | -0.267

Block 7 — technique: protein binding microarray; form: double-stranded DNA, one strand shown; medium: in vitro; concentration: not given; reference: not given; direction: higher = stronger binding
Target: Histone acetyltransferase KAT6A, both winged helices, GST fusion (KAT6A, Homo sapiens, UniProt Q92794, residues 1-181)
Notes: 8-mer, flanks averaged, mean of 2 arrays, mostly near background
Target sequence (chain): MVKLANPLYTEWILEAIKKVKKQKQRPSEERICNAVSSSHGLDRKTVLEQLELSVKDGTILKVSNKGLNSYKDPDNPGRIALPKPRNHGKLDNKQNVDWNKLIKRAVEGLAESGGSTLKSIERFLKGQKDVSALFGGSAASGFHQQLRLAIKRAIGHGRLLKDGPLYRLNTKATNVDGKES
Strand | E-score
CCTGGGGC | -0.0892
AAGTACGA | -0.102
TAGGAGAA | -0.244
TGGACACA | -0.0287
ACCTCTCT | -0.322
CCATGGAA | -0.16
CGCGCGTC | 0.412
TACATAAA | -0.174
ACAACTCA | -0.125
CGGTAACA | 0.122
AACTCTTC | -0.0603
TATATAGA | -0.0091
AAAGCAGT | -0.109
AACGATCT | 0.0674
CTAGCTGA | -0.193
ACGTCCCA | -0.17
GTCAGCCA | -0.203
CAATCTTA | -0.0807
AAGCCCGG | 0.19
CCCATCAA | -0.182

Repeated from above (block 2):
Variant | binding fitness [natural log]
Q55L | 0.168
A29L | 0.105
L45V | -0.212
M51F | 0.321
K39Y | 0.22
L31A | 0.259
V35W | 0.28
V56H | -0.47
A29M | 0.0399
M51E | 0.305
V35Q | 0.0466
